Published values of several laboratories.
Lines come from different studies, so protocols differ. Numbers after ± are the reported error.

With C/C=C1\NC(=O)[C@H]2CSSCC/C=C/[C@H](CC(=O)N[C@H](C(C)C)C(=O)N2)OC(=O)[C@H](C(C)C)NC1=O the clearance was 108 mL/min (advanced cancer patients, plasma; intravenous, 14 mg/m^2, geometric mean, together with: rifampin 600 mg).
CN[C@H]1C(=O)N[C@@H]2Cc3ccc(cc3)Oc3cc4cc(c3O[C@@H]3O[C@H](C(=O)O)[C@@H](O)[C@H](O)[C@H]3NC(=O)CCCCCCCCC(C)C)Oc3ccc(cc3Cl)[C@@H](O)[C@@H]3NC(=O)[C@H](NC(=O)[C@@H]4NC(=O)[C@@H](NC2=O)c2cc(cc(O)c2Cl)Oc2cc1ccc2O)c1ccc(O)c(c1)-c1c(O[C@H]2O[C@H](CO)[C@@H](O)[C@H](O)[C@@H]2O)cc(O)cc1[C@@H](C(=O)NCCCN(C)C)NC3=O has a clearance of 0.675 mL/min (healthy Japanese subjects, plasma; intravenous infusion, 1000 mg, 30 min infusion).
The clearance of NC(=S)NN=Cc1ncccc1N is reported as 374 mL/min (patients, plasma; intravenous infusion, 75 mg/m2, 24 h infusion, steady state).
The clearance of COc1cc2c(cc1OC)CN(CCc1ccc(NC(=O)c3cc(OC)c(OC)cc3NC(=O)c3cnc4ccccc4c3)cc1)CC2 is reported as 154 mL/min (human, plasma; intravenous infusion, 4 mg/kg).
With O=C(O)C[C@H](O)C[C@H](O)/C=C/c1c(C2CC2)nc2ccccc2c1-c1ccc(F)cc1 the clearance was 138 mL/min (healthy Chinese male volunteers, plasma; oral, 2 mg once daily, multiple dose).
With NS(=O)(=O)OC[C@@H]1C[C@@H](n2ccc3c(N[C@H]4CCc5ccccc54)ncnc32)C[C@@H]1O the clearance was 525 mL/min (population PK model; adult cancer patients, plasma; intravenous, typical patient).
For COc1cccc(N2CCN(C3=Nc4c(F)cccc4[C@H](CC(=O)O)N3c3cc(C(F)(F)F)ccc3OC)CC2)c1, the clearance was 67.4 ± 17.4 mL/min (UHPLC-MS/MS; healthy women, plasma; intravenous infusion, 960 mg single dose, 60 min infusion, HPβCD formulation).
For CO[C@H]1C[C@@H]2CC[C@@H](C)[C@@](O)(O2)C(=O)C(=O)N2CCCC[C@H]2C(=O)O[C@H]([C@H](C)C[C@@H]2CC[C@@H](OCCO)[C@H](OC)C2)CC(=O)[C@H](C)/C=C(\C)[C@@H](O)[C@@H](OC)C(=O)[C@H](C)C[C@H](C)/C=C/C=C/C=C/1C, “clearance at steady state” read “decreased” (HPLC-MS/MS; responder patients, whole blood; cycle 1 day 15; reference: partial or non-responders).
`Polymyxin B` has a clearance of 12.9 ± 5.1 mL/min (plasma; 5 µg/mL, blood flow 100 mL/min, dialysate flow 2000 mL/h).
CC(C(=O)O)c1ccc(-c2ccccc2)c(F)c1 (centres unmarked) has a clearance of 0.233 ± 0.167 mL/min (male rabbit, plasma; oral, 2.58 mg/kg).
For CC(C)NCCCC[C@H](NC(=O)[C@H]1CCC(=O)N[C@@H](Cc2ccccc2)C(=O)N[C@@H](Cc2ccc(O)cc2)C(=O)N[C@@H](CCCCNC(C)C)C(=O)N[C@H](CCCNC(=N)N)C(=O)N[C@@H](Cc2ccc3ccccc3c2)C(=O)NCC(=O)N1)C(N)=O, “clearance difference (CL/F max-min)” read 12.9 L/h (population PK model; advanced cancer patients, plasma; subcutaneous, 1 to 30 mg daily).

Excerpt of the above:
CN[C@H]1C(=O)N[C@@H]2Cc3ccc(cc3)Oc3cc4cc(c3O[C@@H]3O[C@H](C(=O)O)[C@@H](O)[C@H](O)[C@H]3NC(=O)CCCCCCCCC(C)C)Oc3ccc(cc3Cl)[C@@H](O)[C@@H]3NC(=O)[C@H](NC(=O)[C@@H]4NC(=O)[C@@H](NC2=O)c2cc(cc(O)c2Cl)Oc2cc1ccc2O)c1ccc(O)c(c1)-c1c(O[C@H]2O[C@H](CO)[C@@H](O)[C@H](O)[C@@H]2O)cc(O)cc1[C@@H](C(=O)NCCCN(C)C)NC3=O has a clearance of 0.675 mL/min (healthy Japanese subjects, plasma; intravenous infusion, 1000 mg, 30 min infusion).
